Measurements pooled from the literature.
Lines come from different studies, so protocols differ. ± marks the error that the study gave.
UniProt P10635, sequence (whole entry, looked up): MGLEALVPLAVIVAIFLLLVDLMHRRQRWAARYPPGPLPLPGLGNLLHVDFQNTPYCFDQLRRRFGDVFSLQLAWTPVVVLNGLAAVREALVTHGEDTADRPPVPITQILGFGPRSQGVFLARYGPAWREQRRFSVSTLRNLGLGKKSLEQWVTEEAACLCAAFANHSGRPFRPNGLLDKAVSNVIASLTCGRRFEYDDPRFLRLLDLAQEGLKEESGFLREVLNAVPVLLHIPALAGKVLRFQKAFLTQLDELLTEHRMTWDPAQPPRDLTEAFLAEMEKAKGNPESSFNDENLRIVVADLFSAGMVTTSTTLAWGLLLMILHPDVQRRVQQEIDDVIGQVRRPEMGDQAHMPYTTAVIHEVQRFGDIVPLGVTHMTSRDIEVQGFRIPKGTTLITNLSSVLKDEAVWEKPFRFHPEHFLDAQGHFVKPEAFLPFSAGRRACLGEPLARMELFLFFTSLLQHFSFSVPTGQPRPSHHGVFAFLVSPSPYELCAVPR

Structure (SMILES)	tested on	assay	system	conditions	how to read	endpoint	result
O=C(O)CCCOc1ccc(O)cc1-c1cc(-c2ccccc2C(F)(F)F)n(-c2ccccc2)n1	human iPSC-derived cardiomyocytes			20 µM		beat rate	42.5 ± 2.3 min⁻¹
Cc1nc2cccc(OCC(C)(C)C(=O)NC(C)C)c2c(N)c1C(=O)[O-].[Na+]	human peripheral blood lymphocytes			500 g/mL, 20 h, without S9		relative mitotic index	108%
O=C(Nc1cnccc1-c1ccc([18F])cc1)c1ccnc(NC(=O)C2CC2)c1		PET imaging	FVB/NJ mice, both sexes, brain	intravenous, 120 min post-injection		SUV	0.09
O=C1C2CC3CC1CC(C(=O)N1CCN(c4ccc([N+](=O)[O-])c5ncccc45)CC1)(C3)C2	Salmonella typhimurium	Ames test	TA100	0.31 µg/well, without S9		mean revertant colonies	18 colonies/well
Nc1nc2cc(C(=O)c3ccc(F)cc3)ccc2[nH]1	Salmonella typhimurium	Ames preincubation test	TA1535	19.5 µg per plate, 3 days, without S9		revertants	20.3 revertants per plate
N#C[C@@H]1CC(F)(F)CN1C(=O)CNC(=O)c1ccnc2c(NC(=O)CCOCCOCCOCCOCCOCCOCCNC(=O)[C@H](CCCCNC(=O)CN3CCN(CC(=O)[O-])CCN(CC(=O)[O-])CCN(CC(=O)[O-])CC3)NC(=O)CCCc3ccc(I)cc3)cccc12.[177Lu+3]	U-87 MG tumour model		host not given, muscle	48 h, tumour-bearing		tracer uptake	0.13 %ID/g
CN1CCCNC(=O)c2cccc(c2)C(=O)NCCCN(C)CCCNc2cccc3c2C(=O)c2cccc(c2C3=O)NCCC1	HSC-2	cell growth or viability, CCK-8		50 nM, 48 h		viability	96%
N#C[C@@H]1CC(F)(F)CN1C(=O)CNC(=O)c1ccnc2c(NC(=O)[C@H](CCCCNC(=O)CCOCCOCCOCCOCCOCCOCCNC(=O)CN3CCN(CC(=O)[O-])CCN(CC(=O)[O-])CCN(CC(=O)[O-])CC3)NC(=O)CCCc3ccc(I)cc3)cccc12.[177Lu+3]	U-87 MG tumour model		host not given, liver	48 h, tumour-bearing		tracer uptake	1.27 %ID/g
CC(C)(C)NCC(SS(=O)(=O)O)c1ccccc1 (centres unmarked)	Schistosoma mansoni	perfusion day 44	infected Swiss Webster mice	600 mg/kg single dose, dosed day 7 post-infection	baseline: vehicle control	body weight decrease	15%
CNC(=O)C1CCCN(C(=O)C2CC3CCC2N3C(=O)[C@@H]2C[C@@H](O)CN2C(=O)NCc2cccc(Cl)c2F)C1 (mixture of isomers)	Cytochrome P450 2D6 (CYP2D6, Homo sapiens, UniProt P10635)	enzyme activity, inhibitor, time-dependent inhibition		0.206 µM, preincubated with NADPH		dextrorphan formation	106 ng/mL
COc1cccc(OC)c1-c1cc(C(=O)NC2(C(=O)O)C3CC4CC(C3)CC2C4)nn1-c1ccc(C(=O)NCCNC(=O)[C@H](CCCCNC(=O)[C@H](CC(C)C)NC(=O)C2OC2C(=O)O)NC(=O)CN2CCN(CC(=O)[O-])CCN(CC(=O)[O-])CCN(CC(=O)[O-])CC2)cc1C(C)C.[177Lu+3] (mixture of isomers)	HT-29 tumour model		host not given, blood	4 h, tumour-bearing		tracer uptake	3.1 %ID/g
N#C[C@@H]1CCCN1C(=O)CNC(=O)c1ccnc2ccc(OCCCN3CCN(C(=O)CCc4ccc(O)c(CN5CCN6CC(=O)[O][Al-]([18F])([O]C(=O)C5)[O]c5ccc(CCC(=O)N7CCN(CCCOc8ccc9nccc(C(=O)NCC(=O)N%10CCC[C@H]%10C#N)c9c8)CC7)cc5C6)c4)CC3)cc12 (some centres unmarked)	U-87 MG tumour model		host not given, intestine	1 h, tumour-bearing		tracer uptake	10.8 %ID/g
CC(C)OCCOCc1ccc(OCC(O)CN(N=O)C(C)C)cc1 (centres unmarked)	Salmonella typhimurium	Ames test	TA1537	5000 µg/plate, 30 % hamster S9	baseline: solvent control	revertant fold increase	0.6 fold
N#C[C@@H]1CCCN1C(=O)CNC(=O)c1ccnc2ccc(OCCCN3CCN(C(=O)CCc4ccc5c(c4)CN4CCN6CC(=O)[O][68Ga-]([O]C(=O)C4)([O]5)[O]c4ccc(CCC(=O)N5CCN(CCCOc7ccc8nccc(C(=O)NCC(=O)N9CCC[C@H]9C#N)c8c7)CC5)cc4C6)CC3)cc12	U-87 MG tumour model		host not given, stomach	1 h, tumour-bearing		tracer uptake	1.3 %ID/g
C=CC(=O)Nc1cc(Nc2nccc(-c3cn(C)c4ccccc34)n2)c(OCC(F)(F)F)nc1N(C)CCN(C)C	human hepatocytes lot LTG	CYP1A2 enzyme activity, inducer		1 µM	baseline: omeprazole 100 µM	induction	5.98%
COc1cccc(OC)c1-c1cc(C(=O)NC2(C(=O)O)C3CC4CC(C3)CC2C4)nn1-c1ccc(C(=O)N(C)CCCN(C)CCCN(C)C(=O)[C@H](CCCCNC(=O)[C@H](CC(C)C)NC(=O)C2OC2C(=O)O)NC(=O)CN2CCN(CC(=O)[O-])CCN(CC(=O)[O-])CCN(CC(=O)[O-])CC2)cc1C(C)C.[177Lu+3] (mixture of isomers)	HT-29 tumour model		host not given, blood	4 h, tumour-bearing		tracer uptake	2.1 %ID/g
N#C[C@@H]1CC(F)(F)CN1C(=O)CNC(=O)c1ccnc2c(NC(=O)[C@@H](N)CCCCNC(=O)CCOCCOCCOCCOCCOCCOCCNC(=O)CN3CCN(CC(=O)[O-])CCN(CC(=O)[O-])CCN(CC(=O)[O-])CC3)cccc12.[177Lu+3]	U-87 MG tumour model		host not given, liver	1 h, tumour-bearing		tracer uptake	0.47 %ID/g
Cc1ccccc1-c1cc(CN2c3ccccc3C=Cc3ccccc32)on1	BJ	cytotoxicity				IC50	> 30 µM
O=C(Nc1cnccc1-c1ccc([18F])nc1)c1ccnc(NC(=O)C2CC2)c1		PET imaging	FVB/NJ mice, both sexes, brain	intravenous, 120 min post-injection, P-gp inhibited, together with: tariquidar 15 mg/kg iv, 2 h before		median SUV	0.072
C=C(NC(=O)c1csc(-c2nc3c(cc2O)-c2nc(cs2)C(=O)NC(C(C)O)C(=O)NC(=C(C)OC)c2nc(cs2)C(=O)NC2c4nc(cs4)C(=O)NC(COC(=O)c4c5c6c(cccc6n4O)COC(=O)C(OC4CC(C)(O)C(N(C)C)C(C)O4)C2OC5)c2nc-3cs2)n1)C(N)=O (centres unmarked)			female Sprague-Dawley rats, plasma	intravenous infusion, 2 mg/kg		AUC(0-inf)	934 ng·h/mL
CC(C)Cc1ccc(C(C)C(=O)N[C@@H](CCCCNC(=O)CCOCCOCCOCCOCCOCCOCCNC(=O)CN2CCN(CC(=O)[O-])CCN(CC(=O)[O-])CCN(CC(=O)[O-])CC2)C(=O)Nc2cccc3c(C(=O)NCC(=O)N4CC(F)(F)C[C@H]4C#N)ccnc23)cc1.[177Lu+3] (some centres unmarked)	U-87 MG tumour model		host not given, pancreas	1 h, tumour-bearing		tracer uptake	7.45 %ID/g
CC(C)(O)c1ncc([S@](N)(=O)=NC(=O)Nc2c3c(cc4c2CCC4)CCC3)s1		measured: all system organ classes	healthy human subjects	oral, 100 mg, total		share of subjects with TEAEs	83%
COC(=O)Nc1nc2cc(C(O)c3ccc(F)cc3)ccc2[nH]1 (centres unmarked)	Salmonella typhimurium	Ames preincubation test	TA100	875.0 µg per plate, 3 days, without S9, precipitation		revertants	150 revertants per plate
CCN(CC)CC#CCNc1ccnc2cc(Cl)ccc12	Salmonella typhimurium	mini-Ames test	TA100	1000.0 µg/well, without S9		revertants per well	13
COc1cccc(OC)c1-c1cc(C(=O)NC2(C(=O)O)C3CC4CC(C3)CC2C4)nn1-c1ccc(C(=O)N(C)CCOCCN(C)C(=O)[C@H](CCCCNC(=O)[C@H](CC(C)C)NC(=O)C2OC2C(=O)O)NC(=O)CN2CCN(CC(=O)[O-])CCN(CC(=O)[O-])CCN(CC(=O)[O-])CC2)cc1C(C)C.[177Lu+3] (mixture of isomers)	HT-29 tumour model		host not given, bone	7 days, tumour-bearing		tracer uptake	0.4 %ID/g
O=C1NC2(CC2)COc2ncc(F)cc2[C@H]2COCCN2c2ccn3ncc1c3n2	Salmonella typhimurium	Ames test	TA102	500 µg/plate, 48 h, together with: without S9		revertant colonies	360 ± 18 revertants/plate

Repeated from above:
Structure (SMILES)	tested on	assay	system	conditions	how to read	endpoint	result
C=CC(=O)Nc1cc(Nc2nccc(-c3cn(C)c4ccccc34)n2)c(OCC(F)(F)F)nc1N(C)CCN(C)C	human hepatocytes lot LTG	CYP1A2 enzyme activity, inducer		1 µM	baseline: omeprazole 100 µM	induction	5.98%
COc1cccc(OC)c1-c1cc(C(=O)NC2(C(=O)O)C3CC4CC(C3)CC2C4)nn1-c1ccc(C(=O)N(C)CCCN(C)CCCN(C)C(=O)[C@H](CCCCNC(=O)[C@H](CC(C)C)NC(=O)C2OC2C(=O)O)NC(=O)CN2CCN(CC(=O)[O-])CCN(CC(=O)[O-])CCN(CC(=O)[O-])CC2)cc1C(C)C.[177Lu+3] (mixture of isomers)	HT-29 tumour model		host not given, blood	4 h, tumour-bearing		tracer uptake	2.1 %ID/g
